Results gathered from unrelated publications.
Protocols differ between the studies behind these lines. Several values in a cell are separate wells, animals, samples, runs or records. ± marks the error that the study gave.
Target: Melanocyte-stimulating hormone receptor (Mc1r, Mus musculus, UniProt Q01727)
UniProt Q01727, sequence (whole entry, looked up): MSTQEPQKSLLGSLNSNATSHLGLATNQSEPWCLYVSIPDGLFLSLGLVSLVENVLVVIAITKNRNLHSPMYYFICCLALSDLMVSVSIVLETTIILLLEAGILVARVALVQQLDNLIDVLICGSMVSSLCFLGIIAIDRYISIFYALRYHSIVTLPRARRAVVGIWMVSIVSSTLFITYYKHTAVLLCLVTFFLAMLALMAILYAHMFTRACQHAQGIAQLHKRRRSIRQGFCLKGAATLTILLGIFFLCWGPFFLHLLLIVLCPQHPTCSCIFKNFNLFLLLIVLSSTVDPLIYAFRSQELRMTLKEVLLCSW

Compound | test | quantity | result
C[C@H](NC(=O)[C@H](CC(N)=O)NC(=O)[C@H](Cc1c[nH]c2ccccc12)NC(=O)[C@H](CCCNC(=N)N)NC(=O)[C@@H](Cc1ccccc1)NC(=O)[C@H](Cc1c[nH]cn1)NC(=O)[C@H](CCCN=[N+]=[N-])NC(=O)[C@@H](N)Cc1ccc(O)cc1)C(=O)N[C@@H](Cc1ccccc1)C(=O)N[C@@H](CCCN=[N+]=[N-])C(=O)N[C@@H](Cc1ccc(O)cc1)C(N)=O | agonist | EC50 | 138 ± 18 nM
CC(C)[C@H](NC(=O)[C@@H]1CCCN1C(=O)[C@H](CCCNC(=N)N)NC(=O)[C@H](CS)NC(=O)[C@H](Cc1c[nH]c2ccccc12)NC(=O)[C@H](CCCNC(=N)N)NC(=O)[C@@H](Cc1ccccc1)NC(=O)[C@H](Cc1c[nH]cn1)NC(=O)[C@H](CCC(=O)O)NC(=O)[C@H](CS)NC(=O)[C@H](CS)NC(=O)[C@@H]1CC(=O)N[C@@H](CCCNC(=N)N)C(=O)NCC(=O)N[C@@H](CC(=O)O)C(=O)N[C@H](Cc2ccc(O)cc2)C(=O)N1)C(N)=O | ligand displacement, radioligand | IC50 | 1 nM
CCCC[C@H](NC(=O)CNC(=O)CNC(=O)CNC(=O)CNC(=O)CNC(=O)[C@H](CS)NC(C)=O)C(=O)N[C@H]1CC(=O)NCCCC[C@@H](C(N)=O)NC(=O)[C@H](Cc2c[nH]c3ccccc23)NC(=O)[C@H](CCCNC(=N)N)NC(=O)[C@@H](Cc2ccccc2)NC(=O)[C@H](Cc2c[nH]cn2)NC1=O | ligand displacement, radioligand | IC50 | 1.2 nM
CCCC[C@@H]1NC(=O)[C@@H](NC(=O)[C@H](CCC(=O)O)NC(=O)CNC(=O)CN2CCN(CC(=O)O)CCN(CC(=O)O)CCN(CC(=O)O)CC2)CCCCNC(=O)C[C@@H](C(N)=O)NC(=O)[C@H](C(C)C)NC(=O)[C@@H]2CCCN2C(=O)[C@H](CCCNC(=N)N)NC(=O)CNC(=O)[C@H](Cc2c[nH]c3ccccc23)NC(=O)[C@H](CCCNC(=N)N)NC(=O)[C@@H](Cc2ccccc2)NC(=O)[C@H](Cc2c[nH]cn2)NC(=O)[C@H](CCC(=O)O)NC1=O | ligand displacement, radioligand | IC50 | 2.43 nM
CC(C)[C@H](NC(=O)[C@@H]1CCCN1C(=O)[C@H](CCCNC(=N)N)NC(=O)[C@H](CS)NC(=O)[C@H](Cc1c[nH]c2ccccc12)NC(=O)[C@H](CCCNC(=N)N)NC(=O)[C@@H](Cc1ccccc1)NC(=O)[C@H](Cc1c[nH]cn1)NC(=O)[C@H](CCC(=O)O)NC(=O)[C@H](CS)NC(=O)[C@H](CS)NC(=O)CNC(=O)[C@@H]1CC(=O)N[C@@H](CCCNC(=N)N)C(=O)NCC(=O)N[C@@H](CC(=O)O)C(=O)N[C@H](Cc2ccc(O)cc2)C(=O)N1)C(N)=O | ligand displacement, radioligand | IC50 | 1.5 nM
CCCC[C@H](NC(=O)CNC(=O)CNC(=O)c1ccc(NN)nc1)C(=O)N[C@H]1CC(=O)NCCCC[C@@H](C(N)=O)NC(=O)[C@H](Cc2c[nH]c3ccccc23)NC(=O)[C@H](CCCNC(=N)N)NC(=O)[C@@H](Cc2ccccc2)NC(=O)[C@H](Cc2c[nH]cn2)NC1=O | ligand displacement, radioligand | IC50 | 0.6 nM
CC(C)[C@H](NC(=O)[C@@H]1CCCN1C(=O)[C@H](CCCNC(=N)N)NC(=O)[C@H](CS)NC(=O)[C@H](Cc1c[nH]c2ccccc12)NC(=O)[C@H](CCCNC(=N)N)NC(=O)[C@@H](Cc1ccccc1)NC(=O)[C@H](Cc1c[nH]cn1)NC(=O)[C@H](CCC(=O)O)NC(=O)[C@H](CS)NC(=O)[C@H](CS)NC(=O)CCCCCNC(=O)[C@@H]1CC(=O)N[C@@H](CCCNC(=N)N)C(=O)NCC(=O)N[C@@H](CC(=O)O)C(=O)N[C@H](Cc2ccc(O)cc2)C(=O)N1)C(N)=O | ligand displacement, radioligand | IC50 | 1.3 nM
CCCC[C@H](NC(=O)CNC(=O)[C@H](CO)NC(=O)CNC(=O)c1ccc(NN)nc1)C(=O)N[C@H]1CC(=O)NCCCC[C@@H](C(N)=O)NC(=O)[C@H](Cc2c[nH]c3ccccc23)NC(=O)[C@H](CCCNC(=N)N)NC(=O)[C@@H](Cc2ccccc2)NC(=O)[C@H](Cc2c[nH]cn2)NC1=O | ligand displacement, radioligand | IC50 | 0.8 nM
C#CC[C@H](NC(=O)[C@H](Cc1ccccc1)NC(=O)[C@H](C)NC(=O)[C@H](CC(N)=O)NC(=O)[C@H](Cc1c[nH]c2ccccc12)NC(=O)[C@H](CCCNC(=N)N)NC(=O)[C@@H](Cc1ccccc1)NC(=O)[C@H](Cc1c[nH]cn1)NC(=O)[C@H](CN=[N+]=[N-])NC(=O)[C@@H](N)Cc1ccc(O)cc1)C(=O)N[C@@H](Cc1ccc(O)cc1)C(N)=O | agonist | EC50 | 58 ± 6.3 nM
CCCC[C@H](NC(=O)CNC(=O)CNC(=O)CNC(=O)c1ccc(NN)nc1)C(=O)N[C@H]1CC(=O)NCCCC[C@@H](C(N)=O)NC(=O)[C@H](Cc2c[nH]c3ccccc23)NC(=O)[C@H](CCCNC(=N)N)NC(=O)[C@@H](Cc2ccccc2)NC(=O)[C@H](Cc2c[nH]cn2)NC1=O | ligand displacement, radioligand | IC50 | 0.8 nM and 0.7 nM
CC(C)[C@H](NC(=O)[C@@H]1CCCN1C(=O)[C@H](CCCNC(=N)N)NC(=O)[C@H](CS)NC(=O)[C@H](Cc1c[nH]c2ccccc12)NC(=O)[C@H](CCCNC(=N)N)NC(=O)[C@@H](Cc1ccccc1)NC(=O)[C@H](Cc1c[nH]cn1)NC(=O)[C@H](CCC(=O)O)NC(=O)[C@H](CS)NC(=O)[C@H](CS)NC(=O)CCNC(=O)[C@@H]1CC(=O)N[C@@H](CCCNC(=N)N)C(=O)NCC(=O)N[C@@H](CC(=O)O)C(=O)N[C@H](Cc2ccc(O)cc2)C(=O)N1)C(N)=O | ligand displacement, radioligand | IC50 | 0.8 nM
CCCC[C@H](NC(=O)CNC(=O)CNC(=O)CN1CCN(CC(=O)O)CCN(CC(=O)O)CC1)C(=O)N[C@H]1CC(=O)NCCCC[C@@H](C(N)=O)NC(=O)[C@H](Cc2c[nH]c3ccccc23)NC(=O)[C@H](CCCNC(=N)N)NC(=O)[C@@H](Cc2ccccc2)NC(=O)[C@H](Cc2c[nH]cn2)NC1=O | ligand displacement, radioligand | IC50 | 0.9 nM
